Published values from different studies.
Each line is one published result; not all experiments were run side by side. Numbers after ± are the reported error. In brackets after ≈: the same amount, converted by molar mass.
Organism: Staphylococcus aureus

| SMILES | test | system | conditions | quantity | value |
| --- | --- | --- | --- | --- | --- |
| CCc1nc(N)nc(N)c1C#C[C@H](C)c1cc(OC)cc(-c2ccncc2)c1 | broth microdilution | F98Y DHFR mutant | 18 h, 37 °C | MIC | 5 µg/mL |
| CO[C@H]1[C@H](O[C@H]([C@H]2O[C@@H](n3ccc(=O)[nH]c3=O)[C@H](O)[C@@H]2O)[C@H](NCCCNC(=O)[C@@H](NC(=O)[C@@H](NC(=O)N[C@H](C(=O)O)C(C)C)[C@@H]2CCNC(=N)N2)[C@@H](OC(=O)CCCCCCCCCCCCNC(=N)N)C(C)C)C(N)=O)O[C@H](CN)[C@H]1O | alamar blue | 71080 |  | MIC90 | 15 ± 0.239 µg/mL (≈ 12.5 µM) |
| O=[N+]([O-])c1ccccc1S(=O)(=O)Nc1ccc2c(c1)B(O)OC2 | broth microdilution | MRSA ATCC BAA-1762 |  | MIC | 6.25 µg/mL |
| CC(=NO)c1cccc(C(C)(C)NC(=O)Nc2ccc(Cl)c(-c3nc(C(F)(F)F)cs3)c2)c1 |  | Smith, RPMI medium | with: no guanosine | MIC | 1 µM |
| CCc1nc(N)nc(N)c1C#CC(C)c1cc2c(c(-c3ccc(C(=O)O)cc3)c1)OCO2 (centres unmarked) |  | ATCC 43300 | 18 h, 37 °C | MIC | 0.02 µg/mL |
| C=C(C)c1cccc(C(C)(C)NC(=O)Nc2ccc(Cl)c(O)c2)c1 |  | Smith, RPMI medium | with: no guanosine | MIC | 3 µM |
| CO[C@H]1[C@H](O[C@H]([C@H]2O[C@@H](n3ccc(=O)[nH]c3=O)[C@H](O)[C@@H]2O)[C@H](NCCCNC(=O)[C@@H](NC(=O)[C@@H](NC(=O)N[C@H](C(=O)O)C(C)C)[C@@H]2CCNC(=N)N2)[C@@H](OC(=O)CCCCCCCCCCCCN(O)C(=N)N)C(C)C)C(N)=O)O[C@H](CN)[C@H]1O | alamar blue | 71080 |  | MIC90 | 15.2 ± 0.236 µg/mL (≈ 12.5 µM) |
| O=[N+]([O-])c1ccc(S(=O)(=O)Nc2ccc3c(c2)B(O)OC3)cc1F | broth microdilution | MRSA ATCC BAA-1762 |  | MIC | 1.56 µg/mL |
| CCCC1c2ccccc2C=NN1C(=O)/C=C/c1cc(Cc2cnc(N)nc2N)cc(OC)c1OC (racemic) |  | 29213 |  | MIC | 0.125 to 0.25 µg/mL |
| CCc1nc(N)nc(N)c1C#CC(C)c1cc2c(c(-c3ccc(CC(=O)O)cc3)c1)OCO2 (centres unmarked) |  | ATCC 43300 | 18 h, 37 °C | MIC | 0.01 µg/mL |
| CC(=O)c1cccc(C(C)(C)NC(=O)Nc2ccc(Cl)c(-c3nc(C(F)(F)F)cs3)c2)c1 |  | Smith, RPMI medium | with: 1 mM guanosine | MIC | > 30 µM |

Repeated from above:
| SMILES | test | system | conditions | quantity | value |
| --- | --- | --- | --- | --- | --- |
| CCc1nc(N)nc(N)c1C#C[C@H](C)c1cc(OC)cc(-c2ccncc2)c1 | broth microdilution | F98Y DHFR mutant | 18 h, 37 °C | MIC | 5 µg/mL |
